Measurements collected from several papers.
Each numbered part is a random draw from the data of one study; scales do not carry over between parts. Positions count from the first letter of the parent shown.

Study 1
Target: Interferon regulatory factor 3, full length, phosphomimetic (IRF3, Homo sapiens, UniProt Q14653, residues 1-427, S386D/S396D/S398D/S402D/T404D/S405D)
Chain of UniProt Q14653 (whole entry, unmodified, looked up): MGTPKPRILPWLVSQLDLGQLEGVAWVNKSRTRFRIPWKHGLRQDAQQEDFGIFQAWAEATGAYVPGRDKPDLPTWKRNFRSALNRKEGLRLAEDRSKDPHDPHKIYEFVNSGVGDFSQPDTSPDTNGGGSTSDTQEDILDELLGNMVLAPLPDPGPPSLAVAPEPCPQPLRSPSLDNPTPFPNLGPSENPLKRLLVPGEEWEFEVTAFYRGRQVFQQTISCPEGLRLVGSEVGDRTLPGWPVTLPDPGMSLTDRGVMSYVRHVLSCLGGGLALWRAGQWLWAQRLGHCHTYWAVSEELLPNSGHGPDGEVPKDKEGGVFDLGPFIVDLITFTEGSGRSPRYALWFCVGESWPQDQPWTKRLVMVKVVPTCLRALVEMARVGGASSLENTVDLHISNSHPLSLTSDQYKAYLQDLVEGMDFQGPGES
Method: protein-binding microarray
Molecule type: double-stranded DNA, one strand shown
Sample: in vitro
Concentration: 2540 nM top
Notes: 60-bp whole probe
Together with: salmon DNA 0.4 mg/ml
Reference: random background probes
Reading: higher = stronger binding
Shared flanks, not repeated: GCCTAGCAC … GTCTTGATTCGCTTGACGCTGCTG
| Sequence | fitted relative affinity |
| --- | --- |
| GACTGTTTCGGTATCGGGACGTGCTAG | 7.46 z-score |
| GTAGGACTGGGTTTCGGTTAGTGCTAG | 3.19 z-score |
| TTACGTCTCCTACTGCTTTAGTGCTAG | 0.787 z-score |
| GACGATATAAGTTTCGAGACGTGCTAG | 2.01 z-score |
| TTAGAACTGGGGGCTGGATTAGTGCTA | -0.377 z-score |
| TTAGGTTTCGGTTATCGGTTAGTGCTA | 7.81 z-score |
| TTAGGTATCAGGACTGGGTTAGTGCTA | 1.67 z-score |
| TTGTTTTTTTCTATATGCAAGTGCTAG | 2.02 z-score |
| CACCGTCTTATTAAAAAACAGTGCTAG | 0.768 z-score |
| GATGGTCTCCTACTGCTGACGTGCTAG | 0.61 z-score |
| TTAGATCTCCTTATCCTTTAGTGCTAG | 2.02 z-score |
| TTAGAACTGAGTATCCATTAGTGCTAG | 0.84 z-score |
| TCATCTCCAGGGTTTCTCACTGTGCTA | 0.302 z-score |
| TTACAACTGGGGTTTCGATTAGTGCTA | 1.51 z-score |
| TCATCATTTTCTTTAACACTGTGCTAG | 1.36 z-score |
| TTAGTACTGGGTCTCGGTTAGTGCTAG | -0.407 z-score |
| CCTTGTGTTACTTTCTACTTGTGCTAG | 1.95 z-score |
| GACGAACTGAGATTCGAGACGTGCTAG | -0.164 z-score |
| GACGAACTGGGGTTTCGACACGTGCTA | 0.306 z-score |

Study 2
Target: RNA binding protein fox-1 homolog 2, RRM domain, GST-SBP tag (RBFOX2, Homo sapiens, UniProt O43251-10, residues 100-194)
Method: RNA Bind-n-Seq
Molecule type: RNA
Sample: in vitro
Concentration: 365 nM
Notes: natural RNA segment, single round, ends assumed
Reference: no-protein control
Reading: higher = stronger binding
Shared flanks, not repeated: GGGAGUUCUACAGUCCGACGAUC … UGGAAUUCUCGGGUGCCAA
Target sequence (chain): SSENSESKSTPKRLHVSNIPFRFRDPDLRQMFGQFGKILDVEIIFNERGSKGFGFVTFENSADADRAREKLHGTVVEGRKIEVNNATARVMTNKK
| Sequence | RBNS enrichment (R) |
| --- | --- |
| CCAGGCCACCAGAGAUGGUUGAGAUAAAUGACAAAUCUGGUGGAAGUCAGACAUGGCUCUAAAGAGCUUCCUAAGAGACUUCCCGAGAGAGAGACAAAAGUGUUUGUUUG | 0.582 |
| AGAGAGGAAAAAAAUCACCUUUUAUUUGUUUGGGUCUCAUUGUCAGAAUUAUUAUUCAGAUCAAGAAAUCUGUGUCGAUAAAACCUAAUCUCAUAUUGGAGAGUGAAUGU | 0.49 |
| CUCUUAAUUGUCAAAAUUUAAUUCCACAUUUGUAAAUGUAAAAAUAAAGUCUAUUUUUUUUGGUCCAUUGGUGUUGUUAGCAUCUCCAGCUUUAUACCAAGACACCAUCC | 0.934 |
| CUGGAGAGUCCAGUUAAGGUAACCCAGAUUUUUGACAACCGCCUUCCUGCUGAGCCAAAGUUUUCUCAUUACCCCUCCACUGGGGAAGCAGCUGAGGCCCAGGGCCUUGC | 0.293 |
| ACUUAAAUCCUUAAAAGAUUGCUUCGUUUUUAAAAUAACGCAUGUCCAUUUUAGAAAAUUAGAAAAUCAGUCCCACCACCCAAAGAUUAUUGUGCAUGCUGAAAAGAGUA | 55.4 |
| UGCAGCCGUAGCAGCAUCCAUCUCCAGCAAGUCUCCUGGCCUCUCCUCGUCUUCUUCAUCCUCAUCAUCCUCCACGUGCAGUGAUGUGGCAGCACAGACCCCUGGAGGCC | 0.587 |
| UUAAUGGGUGAGGAUUGCUUUCUCCAUUAGAGCAUUAAGCUAUAACUAUCAACAUUGUAAACCAAAUUGCCUUAUUUUCCUUCCAAACUUCAUAUAUCUAUCAGGUAAUA | 0.886 |
| AUCAGGAACUGUAUUUUUUUUAAUGAUUUGCUUUUGAAACUUGAAGUCUUGAAAACAGUGUGAUGCAAUUACUGCUGUUCUAGCCCCCAAAGAGUUUUCUGUGCAAAAUC | 0.693 |
| AAAUGCCAGUUUUCCUCCCCCGCCCUUGUUUUCCAUAAAACAUAUUUAUAUAUUGUGAUGAGGAGUACUUUCUGAAGAGUACUUCGUAUUUUUUUUUAAUUGCCUUGUUU | 0.54 |
| CUCCUGUCCAGCAGGUAGUGGGUGAAUGUGUGAAGGUCUUGCCUGAAUCCAUCAGGACUUGGGAAACAGAGAACCCUGUGGGGGCGGCUGUGGGGGAGGUCCCUGCCAGU | 0.84 |
| UAUGCUCUUUGGGCUAAGAGGGGAUCAUCUCGCUUAAGAUGUACUCCUGAUGUAAACAUUUCCCCCACUUUCCAAAUAAUGGUAAAGAAAACAGUGGCAAGGGCUGUUCU | 0.774 |
| AAUUGUCAGUAUGGCACAGAUCACUGUAUUAAAAUGCUCUUUCGUCUUCAUAUUUACCUUCUGAGGUCAUUUUUUAACUUAAUGUGUUACUACAAAGAUUUGCAGAUCUU | 0.683 |

Study 3
Target: Centromere-binding protein 1, full length, His-tagged (CBF1, Saccharomyces cerevisiae, UniProt P17106, residues 1-351)
Chain of UniProt P17106 (whole entry, looked up): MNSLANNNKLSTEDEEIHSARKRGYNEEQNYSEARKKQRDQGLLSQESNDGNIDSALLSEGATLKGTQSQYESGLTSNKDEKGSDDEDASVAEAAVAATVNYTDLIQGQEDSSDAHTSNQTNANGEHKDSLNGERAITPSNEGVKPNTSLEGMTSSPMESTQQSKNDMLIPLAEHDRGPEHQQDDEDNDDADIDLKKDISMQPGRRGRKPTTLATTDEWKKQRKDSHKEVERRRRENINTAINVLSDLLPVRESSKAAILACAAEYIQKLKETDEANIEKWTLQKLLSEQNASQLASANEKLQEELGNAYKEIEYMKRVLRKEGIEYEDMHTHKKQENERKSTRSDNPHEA
Method: competition protein-binding microarray
Molecule type: double-stranded DNA, one strand shown
Sample: in vitro
Concentration: 2 µM
Notes: whole 60-bp probe, lowest competitor level
Together with: Pho4 competitor, 0.05 µM
Reading: higher = stronger binding
Shared flanks, not repeated: … GTCTTGATTCGCTTGACGCTGCTG
| Sequence | fluorescence intensity |
| --- | --- |
| GAATTGGTAGAACTGGTCGTGCCAGTAACACCGGTC | 57.4 a.u. |
| CTTCAGGGCAACAACCATGTGTTTCCTGGAAGCTTG | 81.4 a.u. |
| GTATAGTATCCACTTCGTGTGACAGTACTATAATCG | 99.3 a.u. |
| GGAGCCAACAGCTCAAACGTGCCAGGGACTGGTTAC | 77.7 a.u. |
| GTAAGTCGTCAAAGGGGCGTGGGTAAGCCATTTCTT | 66.9 a.u. |
| CAGTTCTCGACCCATCACGTGTGTTCTCGTTTAGCG | 2440 a.u. |
| CGGGGTTAAGTTTGAGGTGTGGGTGGCTTGCAGCAG | 69.2 a.u. |
| AATGGAGATATATACTTGATAGCTTTGGATGAATCT | 71.9 a.u. |
| TTGCGGGTTACAAAGCACGGGTCCATTGAAGATCTT | 98 a.u. |
| CCGGTCCCCCGATCCCATGCGCCAGGCGCGCCGGCA | 66.8 a.u. |
| ATAGGGCGCTCGGCTCTCGTGCTTTGCGGTGGGAGC | 79.7 a.u. |
| AGCGGCACATAATGCAGCGTGCGGAAGTGTCAGTAG | 72 a.u. |
| CGTCCTAGTGATTGCGCAGTGGGTGCCATGAGGAAG | 78.2 a.u. |
| TGGACAAGACCAAGCCAGGTGACGGAGTTAACGTTG | 86.2 a.u. |
| AAAACAACATAAAAATCCGTGATGGTTTAATGGTCA | 107 a.u. |
| TCTTTCATTAATCGCCACCTGATGTTTTTCGCTGCT | 171 a.u. |
| CGGGGTTAAGTTTTTCACGTGCCCTGCTTGCAGCAG | 1130 a.u. |
| TAACATGCAGTATCGCACGGCGGGCCGAAAGTCGGA | 56.2 a.u. |
| AAAGCGGTAATTTGCTTGGTGGGTGCAGATATCTAT | 68.1 a.u. |
| TCCCCATGAACTCAGCATGTGCTACTCCAGTTAATG | 130 a.u. |
| CCCAAACTCCCTTTACACATGCTGCTCCATCGCGGG | 78.7 a.u. |
| CTTCTTGTAATGTTGCGCGTGATGGGAATCGATGTC | 307 a.u. |
| CTGTTTCCATTTTGCCGCGTGGAGGCATCTGTCCAA | 85.2 a.u. |
| CTAACGAAGGTTTGAAACGTGGGTGACAAGCCAAGT | 70 a.u. |
| GTCTTGTCTCATTGTCACTGCACTTTCCCCACTTCA | 85.2 a.u. |

Study 4
Target: ABI1, truncated, D143A, DHFR fusion (Arabidopsis thaliana)
Method: DHFR PCA, deep sequencing
Sample: yeast
Notes: methotrexate growth selection, single substitutions
Together with: (+)-ABA 17 µM
Reference: wild-type fitted maximum
Reading: higher = stronger binding
Parent: PYL1, truncated, DHFR fusion (Arabidopsis thaliana); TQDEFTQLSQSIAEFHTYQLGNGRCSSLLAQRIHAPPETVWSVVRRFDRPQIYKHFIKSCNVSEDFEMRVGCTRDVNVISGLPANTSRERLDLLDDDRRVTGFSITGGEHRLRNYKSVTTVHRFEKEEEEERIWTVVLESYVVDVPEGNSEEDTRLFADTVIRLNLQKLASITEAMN; partner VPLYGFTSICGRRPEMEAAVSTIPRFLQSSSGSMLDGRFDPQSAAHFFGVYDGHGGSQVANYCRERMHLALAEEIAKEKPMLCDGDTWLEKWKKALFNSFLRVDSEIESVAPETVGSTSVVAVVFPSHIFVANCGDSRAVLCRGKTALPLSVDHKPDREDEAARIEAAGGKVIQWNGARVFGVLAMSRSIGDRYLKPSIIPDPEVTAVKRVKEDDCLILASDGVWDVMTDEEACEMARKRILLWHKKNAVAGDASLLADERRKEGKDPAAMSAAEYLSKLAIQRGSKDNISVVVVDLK
| Variant | relative binding score |
| --- | --- |
| V78S | 6.83% |
| S59Q | 79.2% |
| E131D | 91.4% |
| Y115R | -0.701% |
| E67T | 81.4% |
| G102P | -0.989% |
| R32K | 84.4% |
| S80I | 7.23% |
| D144E | 51.3% |
| I162V | 85.9% |
| P83D | 38.9% |
| D3M | 72.4% |

Study 5
Target: PABPC1L2, full length, GST fusion (mouse, UniProt A0ABA7IW68)
Method: RNAcompete
Molecule type: RNA
Sample: in vitro
Concentration: 20 nM
Notes: 7-mer, probes averaged, single round
Reference: mean of 7-mers
Reading: higher = stronger binding
Residues (chain): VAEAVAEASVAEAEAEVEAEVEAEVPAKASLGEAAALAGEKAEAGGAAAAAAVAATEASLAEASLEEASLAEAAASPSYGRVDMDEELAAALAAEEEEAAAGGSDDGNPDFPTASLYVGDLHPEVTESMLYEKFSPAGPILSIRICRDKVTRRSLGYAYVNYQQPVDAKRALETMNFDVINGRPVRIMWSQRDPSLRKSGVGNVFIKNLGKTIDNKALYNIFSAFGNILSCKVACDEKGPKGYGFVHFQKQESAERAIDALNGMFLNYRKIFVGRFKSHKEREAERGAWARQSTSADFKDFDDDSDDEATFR
| Sequence | 7-mer Z-score |
| --- | --- |
| CGGUACG | -0.0337 |
| UCCGGUA | -0.0772 |
| CGUUUUA | -0.42 |
| UCUGGUC | -0.278 |
| GAGACGC | 0.000733 |
| AGUUUUG | -0.411 |
| CCAAAAC | 0.994 |
| UUUGUCU | -0.489 |
| CUCUAUU | -0.338 |
| UCCAAGU | -0.177 |
| UCAAAUC | -0.179 |
| ACACACG | -0.021 |
| AGGGAGG | 0.423 |
| AGGACUG | 0.144 |
| UCAUGCG | -0.0989 |
| AUUAUUU | -0.106 |
| AAGUGUC | 0.22 |
| GGAGCUC | -0.246 |
| UAAGGAA | 0.0913 |
| AUUUUAG | 0.0533 |
| AUACGAG | 0.0152 |
| GAUAACG | -0.0917 |
| GCCUCGA | -0.222 |

Excerpt of the above (study 3):
| Sequence | fluorescence intensity |
| --- | --- |
| GTATAGTATCCACTTCGTGTGACAGTACTATAATCG | 99.3 a.u. |
| CCCAAACTCCCTTTACACATGCTGCTCCATCGCGGG | 78.7 a.u. |
| CAGTTCTCGACCCATCACGTGTGTTCTCGTTTAGCG | 2440 a.u. |
| GTAAGTCGTCAAAGGGGCGTGGGTAAGCCATTTCTT | 66.9 a.u. |
| CTAACGAAGGTTTGAAACGTGGGTGACAAGCCAAGT | 70 a.u. |
| TGGACAAGACCAAGCCAGGTGACGGAGTTAACGTTG | 86.2 a.u. |
| GAATTGGTAGAACTGGTCGTGCCAGTAACACCGGTC | 57.4 a.u. |
